{"data": "Published values collected from several papers", "rep main protease": "Replicase polyprotein 1ab, main protease (rep, Severe acute respiratory syndrome coronavirus 2, UniProt P0DTD1)", "Spike glycoprotein": "Spike glycoprotein (Severe acute respiratory syndrome coronavirus 2, UniProt P0DTC2)", "note": "Each line is one published result; not all experiments were run side by side. Values joined by “and” are separate records of one study, mostly repeats; a detail may differ. ± marks the error that the study gave."}
{"Compound": "CCS(=O)(=O)c1ncc(Cl)c(C(=O)N(Cc2ccc(Cl)cc2)Cc2ccco2)n1", "tested on": "rep main protease", "assay": "viral replication, mKate2 reporter", "test system": "SARS-CoV-2", "conditions": "20 µM", "measurement": "inhibition", "value": "-0.0687%"}
{"Compound": "Cc1nc(C(=O)N2CC[C@H](N[C@@H]3N=C(c4ccccc4)Nc4ccccc43)C2)cc(=O)[nH]1", "tested on": "rep main protease", "assay": "enzyme activity, inhibitor", "conditions": "5 µM, mean of runs", "measurement": "inhibition", "value": "12%"}
{"Compound": "CC[C@H](C)[C@H](NC(=O)[C@H](CC(C)C)NC(=O)[C@H](Cc1c[nH]c2ccccc12)NC(=O)[C@H](CCC(N)=O)NC(=O)[C@@H](NC(=O)[C@H](Cc1ccccc1)NC(=O)[C@H](C)NC(=O)[C@H](CCCCNC(=O)COCCOCCNC(=O)COCCOCCNC(=O)CC[C@H](NC(=O)CCCCCCCCCCCCCCCCCCC(=O)O)C(=O)O)NC(=O)[C@H](CCC(N)=O)NC(=O)[C@H](C)NC(=O)[C@@H](NC(=O)[C@H](CCCCN)NC(=O)[C@H](CC(=O)O)NC(=O)[C@H](CC(C)C)NC(=O)C(C)(C)NC(=O)[C@@H](NC(=O)[C@H](CO)NC(=O)[C@H](Cc1ccc(O)cc1)NC(=O)[C@H](CC(=O)O)NC(=O)[C@H](CO)NC(=O)[C@@H](NC(=O)[C@H](Cc1ccccc1)NC(=O)[C@@H](NC(=O)CNC(=O)[C@H](CCC(=O)O)NC(=O)C(C)(C)NC(=O)[C@@H](N)Cc1ccc(O)cc1)[C@@H](C)O)[C@@H](C)O)[C@@H](C)CC)[C@@H](C)CC)C(C)C)C(=O)N[C@@H](C)C(=O)NCC(=O)NCC(=O)N1CCC[C@H]1C(=O)N[C@@H](CO)C(=O)N[C@@H](CO)C(=O)NCC(=O)N[C@@H](C)C(=O)N1CCC[C@H]1C(=O)N1CCC[C@H]1C(=O)N1CCC[C@H]1C(=O)N[C@@H](CO)C(N)=O", "test system": "healthy subjects", "conditions": "all MAD doses", "measurement": "subjects with catheter site erythema", "value": "14.3%"}
{"Compound": "Cc1ccccc1C(=O)N[C@H](C)c1ccc2ccccc2c1", "tested on": "rep main protease", "assay": "viral replication, mKate2 reporter", "test system": "SARS-CoV-2", "conditions": "20 µM", "measurement": "inhibition", "value": "-0.271%"}
{"Compound": "CC(C)=CCc1cc2c(cc1O)O[C@H](c1ccc(O)cc1)CC2=O", "tested on": "Spike glycoprotein", "assay": "binding, BLI", "measurement": "koff", "value": "0.0787 s⁻¹"}
{"Compound": "Cc1nc(N)c2ccn(C3CCN(C(=O)c4ccc(S(=O)(=O)F)cc4)CC3)c2n1", "tested on": "cya (Bacillus anthracis, UniProt P40136)", "measurement": "kinact", "value": "0.00215 s⁻¹"}
{"Compound": "CC(C)=CCc1c(O)ccc(C(=O)/C=C/c2ccc(O)cc2)c1O", "tested on": "Spike glycoprotein", "assay": "binding", "measurement": "kon", "value": "43700 M⁻¹ s⁻¹"}
{"Compound": "Cn1cnc(Cn2c(=O)[nH]/c(=N\\c3cc4cn(C)nc4cc3Cl)n(Cc3cc(F)c(F)cc3F)c2=O)n1", "test system": "human, moderate renal impairment", "conditions": "oral, 375 mg, treatment-related dry mouth, Mild severity", "measurement": "patients with adverse event", "value": "0%"}
{"Compound": "C[C@H](NC(=O)Cc1cc(F)cc(F)c1)C(=O)N[C@@H]1C(=O)N(C)c2ccccc2-c2ccccc21", "tested on": "rep main protease", "assay": "viral replication, Gluc reporter", "test system": "SARS-CoV-2", "conditions": "20 µM", "measurement": "inhibition", "value": "1.06%"}
{"Compound": "CC(C)C[C@H](NC(=O)[C@H](CC(=O)O)NC(=O)CNC(=O)[C@H](CCCNC(=N)N)NC(=O)[C@H](CC(C)C)NC(=O)[C@H](CC(N)=O)NC(=O)[C@@H]1CCCN1C(=O)[C@@H](NC(=O)[C@H](C)NC(=O)[C@H](CC(N)=O)NC(=O)c1ccc(F)cc1)C(C)C)C(=O)N[C@@H](CCC(N)=O)C(=O)N[C@H](C(=O)N[C@@H](CC(C)C)C(=O)N[C@@H](C)C(=O)N[C@@H](CCC(N)=O)C(=O)N[C@@H](CCCCN)C(=O)N[C@H](C(=O)N[C@@H](C)C(=O)N[C@@H](CCCNC(=N)N)C(=O)N[C@H](C(=O)NCCOCCOCCOCCOCCOCCOCCOCCOCCOCCOCCOCCOCCOCCOCCOCCOCCOCCOCCOCCOCCOCCOCCOCCOCCOCCOCCOCCOCCC(N)=O)[C@@H](C)O)C(C)C)C(C)C [fluorine-18 labelled]", "test system": "female athymic nude mouse, lung", "conditions": "intravenous, range over all time points", "measurement": "lung uptake", "value": "2 to 3 %ID/g"}
{"Compound": "Cc1conc1C(=O)N1Cc2ccccc2C[C@H]1CNC(=O)c1cccc2[nH]ncc12", "tested on": "rep main protease", "assay": "enzyme activity, inhibitor", "conditions": "5 µM, run 2", "measurement": "inhibition", "value": "10.8%"}
{"Compound": "Nc1ncnc2c([C@@H]3N[C@H](CO)[C@@H](O)[C@H]3O)c[nH]c12", "tested on": "Severe acute respiratory syndrome coronavirus", "assay": "viral replication, inhibitor", "test system": "Vero 76", "conditions": "9.5 µM", "measurement": "inhibition", "value": "0%"}
{"Compound": "CCc1c(C(=O)C(N)=O)c2c(OCC(=O)O)cccc2n1Cc1ccccc1", "tested on": "Daboia russelii venom phospholipase A2", "assay": "enzyme activity, inhibitor", "test system": "TN population", "conditions": "10 µM, with: NOB substrate", "scale": "baseline: venom alone", "measurement": "remaining activity", "value": "30% and 32% and 34%"}
{"Compound": "Cc1ccc(-c2nc(C[S+]([O-])CC(=O)N3CCN(c4ccc(Cl)cc4)CC3)c(C)o2)cc1 (centres unmarked)", "tested on": "SARS-CoV-2", "assay": "cytopathic effect", "test system": "USA_WA1/2020", "conditions": "round 1, 5-point", "measurement": "maximum response", "value": "32.8%"}
{"Compound": "O=C(/C=C\\c1cnccn1)NC[C@@H](NC(=O)c1cn[nH]c(=O)c1)c1ccc2ccccc2c1", "tested on": "rep main protease", "assay": "enzyme activity, inhibitor", "conditions": "5 µM, run 1", "measurement": "inhibition", "value": "14.9%"}
{"Compound": "Cc1oc(-c2cccc(Cl)c2)nc1CN1CCCC(C(=O)NCCc2ccc(Cl)cc2)C1 (centres unmarked)", "tested on": "SARS-CoV-2", "assay": "cytopathic effect, cell-based CPE", "test system": "USA_WA1/2020", "measurement": "AC50", "value": "25.1 µM"}
{"Compound": "c1cc(CN2CCCNCCNCCCNCC2)ccc1CN1CCCNCCNCCCNCC1", "tested on": "rep main protease", "test system": "HEK293T", "conditions": "20 µM", "measurement": "inhibition", "value": "0.392%"}
{"Compound": "CC[C@H](C)[C@H](NC(=O)[C@@H]1CCCN1C(=O)[C@H](C)NC(=O)[C@@H]1CSSC[C@@H]2NC(=O)[C@H](CC(=O)O)NC(=O)[C@H](CCCNC(=N)N)NC(=O)[C@H](CCC(=O)O)NC(=O)[C@H](CCCNC(=N)N)NC(=O)CNC(=O)[C@H](CC(=O)O)NC(=O)[C@@H]3CSSC[C@H](NC(=O)[C@H](CCC(=O)O)NC(=O)[C@H](CC(C)C)NC(=O)CNC(=O)[C@H](C)NC(=O)[C@H](CSSC[C@H](NC(=O)[C@H](Cc4ccccc4)NC(=O)[C@@H](N)CO)C(=O)N[C@@H](CC(C)C)C(=O)N[C@@H](C(C)C)C(=O)N[C@@H](CCCCN)C(=O)N[C@@H](Cc4c[nH]c5ccccc45)C(=O)N[C@@H](CCCCN)C(=O)N[C@@H](CCC(N)=O)C(=O)N3)NC2=O)C(=O)N[C@@H](Cc2c[nH]c3ccccc23)C(=O)N[C@@H](CCCCN)C(=O)N[C@@H](CCCNC(=N)N)C(=O)N[C@@H](CO)C(=O)N[C@@H](CCCNC(=N)N)C(=O)N[C@@H](CC(N)=O)C(=O)N[C@@H](CCCCN)C(=O)N[C@@H](CO)C(=O)N[C@@H](CO)C(=O)N[C@@H](C(C)C)C(=O)N1)C(=O)N[C@H](C(=O)O)[C@@H](C)O", "tested on": "ASIC1 (Homo sapiens, UniProt P78348)", "assay": "ion current, outside-out patch clamp", "test system": "HEK-293T", "conditions": "100 nM", "scale": "baseline: same patch before toxin", "measurement": "rise time slowing", "value": "15 ± 2 fold"}
{"Compound": "O=C(CC1CC(=O)NC(=O)C1)NC[C@@H]1CC2(CCC2)CN1C(=O)[C@@H]1CCCC12CCOCC2", "tested on": "rep main protease", "assay": "enzyme activity, inhibitor", "conditions": "5 µM, run 2", "measurement": "inhibition", "value": "13.7%"}
{"Compound": "CC(C)=CCC[C@](C)(O[C@@H]1O[C@H](CO[C@@H]2O[C@H](CO)[C@@H](O)[C@H](O)[C@H]2O)[C@@H](O)[C@H](O)[C@H]1O)[C@H]1CC[C@]2(C)[C@@H]1[C@H](O)C[C@@H]1[C@@]3(C)CC[C@H](O[C@@H]4O[C@H](CO)[C@@H](O)[C@H](O)[C@H]4O)C(C)(C)[C@@H]3CC[C@]12C", "tested on": "Spike glycoprotein", "assay": "binding, BLI", "measurement": "koff", "value": "0.207 s⁻¹"}
{"note": "A few entries again:"}
{"Compound": "CC(C)C[C@H](NC(=O)[C@H](CC(=O)O)NC(=O)CNC(=O)[C@H](CCCNC(=N)N)NC(=O)[C@H](CC(C)C)NC(=O)[C@H](CC(N)=O)NC(=O)[C@@H]1CCCN1C(=O)[C@@H](NC(=O)[C@H](C)NC(=O)[C@H](CC(N)=O)NC(=O)c1ccc(F)cc1)C(C)C)C(=O)N[C@@H](CCC(N)=O)C(=O)N[C@H](C(=O)N[C@@H](CC(C)C)C(=O)N[C@@H](C)C(=O)N[C@@H](CCC(N)=O)C(=O)N[C@@H](CCCCN)C(=O)N[C@H](C(=O)N[C@@H](C)C(=O)N[C@@H](CCCNC(=N)N)C(=O)N[C@H](C(=O)NCCOCCOCCOCCOCCOCCOCCOCCOCCOCCOCCOCCOCCOCCOCCOCCOCCOCCOCCOCCOCCOCCOCCOCCOCCOCCOCCOCCOCCC(N)=O)[C@@H](C)O)C(C)C)C(C)C [fluorine-18 labelled]", "test system": "female athymic nude mouse, lung", "conditions": "intravenous, range over all time points", "measurement": "lung uptake", "value": "2 to 3 %ID/g"}
